Measured values pooled from the literature.
Each line is one published result; not all experiments were run side by side. Several values in a cell are separate wells, animals, samples, runs or records. ± marks the error that the study gave.
TDP1: Tyrosyl-DNA phosphodiesterase 1 (TDP1, Homo sapiens, UniProt Q9NUW8)
Sequence of UniProt Q9NUW8 (whole entry, looked up): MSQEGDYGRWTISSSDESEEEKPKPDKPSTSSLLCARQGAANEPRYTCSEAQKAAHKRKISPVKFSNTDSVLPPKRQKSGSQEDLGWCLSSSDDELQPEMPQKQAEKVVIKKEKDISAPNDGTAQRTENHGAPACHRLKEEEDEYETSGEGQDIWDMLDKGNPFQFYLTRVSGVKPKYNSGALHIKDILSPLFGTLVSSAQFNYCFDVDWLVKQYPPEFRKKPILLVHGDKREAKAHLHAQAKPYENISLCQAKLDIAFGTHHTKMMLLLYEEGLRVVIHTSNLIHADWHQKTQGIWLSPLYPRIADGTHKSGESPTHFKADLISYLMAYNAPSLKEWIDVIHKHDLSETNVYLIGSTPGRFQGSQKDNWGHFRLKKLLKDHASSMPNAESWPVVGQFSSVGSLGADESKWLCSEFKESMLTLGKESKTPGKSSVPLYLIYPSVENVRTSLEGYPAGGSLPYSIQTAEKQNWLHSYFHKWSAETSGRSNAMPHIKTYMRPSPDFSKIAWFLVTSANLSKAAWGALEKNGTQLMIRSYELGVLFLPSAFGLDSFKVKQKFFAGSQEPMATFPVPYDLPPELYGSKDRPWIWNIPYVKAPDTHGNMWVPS

COc1c(Cl)cccc1Nc1c(-c2ccncc2C#C[C@@]2(C)CCCN2C(=O)/C=C/CN(C)C)[nH]c2c1C(=O)NCC2 — tumour regression (female NOD/SCID mouse, PDX; 25 mg/kg once daily, 21 days, HER2 YVMA): 57.9%
COc1ccc(C2CC(Nc3ccc(-c4ccc(NC5=NN(C(C)=O)C(c6ccc(OC)cc6)C5)cc4)cc3)=NN2C(C)=O)cc1 (stereo not drawn) — inhibition (carrageenan paw oedema; albino rat; oral, 50 mg/kg, 3 h; reference: vehicle): 54.8%
CN(C)/C=C/c1c(C=NOCc2ccc(-c3nc4cc(-c5ccccc5)ccn4c3Nc3ccc(C(=O)O)cc3)cc2)c2cc([N+](=O)[O-])ccc2n1C — inhibition (TDP1; enzyme activity, inhibitor; 100 µM): 97%
COCCOCCOCCNC(=O)Cc1cc(CC(=O)N[C@H]2C[C@H]3C(=O)Nc4cc(OCCOCCOCCOC)cc(n4)C(=O)N4CCC[C@H]4C(=O)Nc4cc(OCCOCCOCCOC)cc(n4)C(=O)N4CCC[C@H]4C(=O)Nc4cc(OCCOCCOCCOC)cc(n4)C(=O)N3C2)cc(CC(=O)N[C@H]2C[C@H]3C(=O)Nc4cc(OCCOCCOCCOC)cc(n4)C(=O)N4CCC[C@H]4C(=O)Nc4cc(OCCOCCOCCOC)cc(n4)C(=O)N4CCC[C@H]4C(=O)Nc4cc(OCCOCCOCCOC)cc(n4)C(=O)N3C2)c1 — TΔS (anion binding, ITC; water/methanol, 70 % by volume; together with: selenate): 3.49 kcal/mol
CCC(=O)N[C@@H](C)C(=O)OCC(=O)N[C@@H](C)C(=O)O — side-chain scission rate constant (water; pH 2, 25 °C): 0.0005 h⁻¹
CCCCCc1ccc(S(=O)(=O)N2CC2C(=O)OC)cc1 (stereo not drawn) — tumour growth inhibition (mouse, Lewis lung carcinoma; intraperitoneal, 15 mg/kg, 16 doses, day 10): 45%
CC(C)=CCc1cc(C(=O)/C=C/c2ccc(O)cc2)c(O)cc1O — Vmax (phase I metabolism, substrate; monkey liver microsomes): 126 ± 14.7 pmol/min/mg
NC[C@@H](C(=O)Nc1ccc(-c2cn[nH]c2)cc1)c1ccccc1 — IOP (tonometry; Macaca cyclopis, ocular normotensive; ocular, 0.03%, 8 h): 17.8 mmHg
CC(C)(C)NCC(SS(=O)(=O)O)c1ccccc1 (stereo not drawn) — spleen weight (mouse infected with Schistosoma mansoni; 400 mg/kg, day 21 post-infection dosing once, perfusion day 52 post-infection): 0.21 g and 0.16 g
CN(C)c1ccnc(-n2cccc2C=NOCc2ccc(-c3nc4cc(-c5ccccc5)ccn4c3Nc3ccc(C(=O)O)cc3)cc2)c1C#N (mixture of isomers) — inhibition (TDP1; enzyme activity, inhibitor; 100 µM, unpurified compound): 57.4%
COc1cc(O)ccc1CCC(c1ccc(O)cc1)c1cc2c(c(C)c1O)OC(c1ccc(O)cc1)CC2 (mixture of isomers) — 15-HETE level (human blood; 0.3 µM, together with: A23187): 163 ± 51 pg/mL
COC1CN([C@H]2CC[C@H]([C@@]3(C)Oc4c(Cl)cc(C(=O)NCc5c(SC)cc(C)[nH]c5=O)c(C)c4O3)CC2)C1 — log2 fold change (RNA-seq, measured: SLC25A27; human, whole blood; dose not given, 24 h; reference: pretreatment baseline): 2.7
COc1cc2c(NC3CCN(C(C)C)CC3)cc(N3CCOCC3)nc2cc1OCCCN1CCCC1 — log2 fold change (TMT proteomics, measured: SMOC1; 5xFAD mice, hippocampus; dose not given; reference: wild-type mice): 0.58
CCCCCCCCCCCCCCCC(=O)NCCCC[C@H](N)C(=O)N[C@@H](CC(=O)O)C(=O)N[C@H](C(=O)N[C@@H](Cc1c[nH]cn1)C(=O)N[C@@H](Cc1ccccc1)C(=O)N[C@@H](CCCNC(=N)N)C(=O)N[C@H](C(=O)N[C@@H](Cc1ccccc1)C(=O)N[C@@H](CCCNC(=N)N)C(=O)N[C@@H](CO)C(=O)N[C@@H](Cc1c[nH]cn1)C(=O)N[C@@H](CO)C(=O)N[C@@H](CC(=O)O)C(=O)N[C@@H](Cc1ccc(O)cc1)C(=O)N[C@@H](CCCNC(=N)N)C(=O)N[C@@H](CCCNC(=N)N)C(=O)N[C@H](C(=O)O)[C@@H](C)CC)[C@@H](C)O)[C@@H](C)O — body weight (C57BL/6J mice, MCD diet-fed; dose not given, 3 weeks, NASH model): 19.9 ± 1 g
CN1CCC[C@]1(C)/C=C/S(=O)(=O)NC(=O)Nc1c2c(cc3c1CCC3)CCC2 — IL-1β inhibition (human, whole blood ex vivo; 12.5 mg twice daily, day 14, 36 h, multiple ascending dose, together with: LPS and ATP): 27.4%
COCC1CN(C2CCN(c3cc(OC)c(Nc4ncc(Br)c(Nc5ccc6c(c5P(C)(C)=O)OCCO6)n4)cc3C)CC2)C1 — progressive disease (RECIST 1.1; advanced EGFR-mutant NSCLC patients; 10 mg once daily): 66.7%
Cc1cccc(C)c1CNc1cc(C(=O)N2CCC2)cn2c(C)c(C)nc12 — inhibition (esophageal lesions; rat reflux esophagitis model; oral, 1 mg/kg): 82.9%
COc1ccc(C(=O)CCc2cc(C(CCc3ccc(O)cc3OC)c3ccc(O)cc3)c(O)cc2OC)cc1 (racemic) — 12-HETE level (human blood; 0.3 µM, together with: A23187): 8610 ± 3360 pg/mL
COc1cc(C=CC(=O)Nc2ccc(-c3ccc(NC(=O)C=Cc4ccc(O)c(OC)c4)cc3)cc2)ccc1O — inhibition (carrageenan paw oedema; albino rat; oral, 50 mg/kg, 3 h): 27.2%
CC[C@H](C)[C@@H](C(=O)N[C@@H](CC(C)C)C(=O)N[C@@H](CO)C(=O)N[C@@H](CO)C(=O)N[C@H](C(=O)N[C@@H](CCC(=O)O)C(=O)N[C@H](C(=O)NCC(=O)N[C@@H](CO)C(=O)N[C@@H](CC(N)=O)C(=O)N[C@H](C(=O)N1CCC[C@H]1C(N)=O)[C@@H](C)O)C(C)C)[C@@H](C)O)N(C)C(=O)[C@H](C)NC(=O)CN(C)C(=O)[C@H](Cc1ccccc1)NC(=O)[C@H](CO)NC(=O)[C@H](CO)NC(=O)[C@H](CCCNC(=N)N)NC(=O)[C@H](Cc1c[nH]cn1)NC(=O)[C@H](CC(C)C)NC(=O)[C@H](Cc1ccccc1)NC(=O)[C@H](Cc1c[nH]cn1)NC(=O)[C@H](C)NC(=O)[C@H](CC(C)C)NC(=O)[C@H](CCCNC(=N)N)NC(=O)[C@H](CCC(=O)O)NC(=O)[C@@H](NC(=O)[C@H](C)NC(=O)[C@@H]1CSSC[C@H](NC(=O)[C@H](CCCNC(=N)N)NC(=O)CC[C@H](NC(=O)CCCCCCCCCCCCCCCCCCC(=O)O)C(=O)O)C(=O)NCC(=O)N[C@@H]([C@@H](C)O)C(=O)N[C@@H](C)C(=O)N[C@@H]([C@@H](C)O)C(=O)N1)[C@@H](C)O — food intake (male Sprague-Dawley rats; subcutaneous, 30 nmol/kg single dose, 24 h; reference: vehicle): 83.3 ± 1.6%
CC(=O)[O-].O.O.O.O.[Co+2].[O-]c1ccc(Br)cc1C=NCCN1CCOCC1 — inhibition (DPPH radical scavenging; 80 µM): 31.9%

A few entries again:
CN1CCC[C@]1(C)/C=C/S(=O)(=O)NC(=O)Nc1c2c(cc3c1CCC3)CCC2 — IL-1β inhibition (human, whole blood ex vivo; 12.5 mg twice daily, day 14, 36 h, multiple ascending dose, together with: LPS and ATP): 27.4%
COCC1CN(C2CCN(c3cc(OC)c(Nc4ncc(Br)c(Nc5ccc6c(c5P(C)(C)=O)OCCO6)n4)cc3C)CC2)C1 — progressive disease (RECIST 1.1; advanced EGFR-mutant NSCLC patients; 10 mg once daily): 66.7%
Cc1cccc(C)c1CNc1cc(C(=O)N2CCC2)cn2c(C)c(C)nc12 — inhibition (esophageal lesions; rat reflux esophagitis model; oral, 1 mg/kg): 82.9%
